Experimental data of several laboratories.
Each numbered part is a random draw from the data of one study; scales do not carry over between parts.

Study 1 — method: protein binding microarray; form: double-stranded DNA, one strand shown; medium: in vitro; tested at: not given; baseline: not given; direction: higher = stronger binding
Target: Histone acetyltransferase KAT6A, both winged helices, GST fusion (KAT6A, Homo sapiens, UniProt Q92794, residues 1-181)
Setting: 8-mer, flanks averaged, mean of 2 arrays, mostly near background
Construct (chain): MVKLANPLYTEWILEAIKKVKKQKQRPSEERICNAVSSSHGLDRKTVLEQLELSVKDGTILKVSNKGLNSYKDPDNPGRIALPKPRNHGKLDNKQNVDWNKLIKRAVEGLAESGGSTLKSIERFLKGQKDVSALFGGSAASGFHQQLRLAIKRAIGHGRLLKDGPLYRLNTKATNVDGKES
`AACCTTAA` has an E-score of -0.162.
`GTGCGACA` gave an E-score of 0.128.
With `AGAATACG` the E-score was 0.0533.
With `ACCGGACA` the E-score was 0.0503.
`AAGTGCCA` gave an E-score of -0.177.
The E-score of `CCGCGGAC` is reported as 0.316.
For `AACGTCCG`, the E-score was 0.161.
`AAGCATAG` gave an E-score of -0.2.
For `CCCTCCCA`, the E-score was -0.0923.
For `AATGTCAT`, the E-score was -0.0235.
With `AATTCCGT` the E-score was 0.181.
The E-score of `CCATCCAA` is reported as -0.117.

Study 2 — method: EMSA with sequencing; form: double-stranded DNA, one strand shown; medium: in vitro; tested at: 10 and 20 nM; baseline: negative control set to 0; direction: higher = stronger binding
Target: Hepatocyte nuclear factor 3-alpha (Foxa1, Mus musculus, UniProt P35582, residues 1-468, full length assumed)
Setting: whole designed probe, mean of two concentrations, ends assumed
Target sequence (chain): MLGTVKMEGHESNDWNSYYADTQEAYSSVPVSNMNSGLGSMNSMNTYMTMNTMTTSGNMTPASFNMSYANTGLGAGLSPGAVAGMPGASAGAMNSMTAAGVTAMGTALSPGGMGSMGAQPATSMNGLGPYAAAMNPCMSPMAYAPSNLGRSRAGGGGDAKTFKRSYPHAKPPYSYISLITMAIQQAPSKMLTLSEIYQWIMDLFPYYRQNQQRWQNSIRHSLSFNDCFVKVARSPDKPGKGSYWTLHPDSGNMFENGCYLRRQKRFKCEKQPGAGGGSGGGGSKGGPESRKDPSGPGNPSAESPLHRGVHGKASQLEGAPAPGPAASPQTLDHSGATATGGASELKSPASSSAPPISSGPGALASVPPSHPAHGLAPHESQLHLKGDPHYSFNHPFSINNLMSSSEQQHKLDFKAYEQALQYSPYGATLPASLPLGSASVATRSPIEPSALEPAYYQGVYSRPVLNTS
Under “normalised bound fraction”, `GTGAGCGGTGCCCATTGATGGGGAACAGGTTAAAGATTACATTCTAACCACACACCAGTCATACTCTGCTCCGGGAAAAACCTTAAGTACTTGTGACCTTCTGTCCCTAACTTAGATGTTGTTTACTTTCAGTTTACATACAGTGCAAACACCAGGGTGTACATGATTTTCAAGTCAAAAAAGATAAGGACTAATCCAGAAAGGAGAAGGAATTCTGTTTTTCACTGGGATCGTGGGGAC` is recorded as 0.381 ratio.
For `GTGAGCGGTGCCCATTGATGGGGAACTTATGATCTGAGTATATATAGTAAGTACCTCCCCTTTCAGGGTAAGGCAGTAGGTAATGGTGACAGGGAAGCAAAAAGGTGACTCAGGTTGAGTAAACAACACCAAGCATATCTGACTCAAGGAATGCTTCAGAGGCCAGGGGTGCATGCCTGTAATCCCAGCACCTTGGAAGGCTGACACAGGAGGATCACTTTTCACTGGGATCGTGGGGAC`, “normalised bound fraction” read 0.421 ratio.
For `GTGAGCGGTGCCCATTGATGGGGAACGTTGCAGTTAGCTGCCTGACCCCAACATTACTTGGAGAAAGATTAGATTCTTAATAGGCTCTGATGGTTCACTGCATAACTTCTGAACTTTCCATGTTTGCTTTGACTATGTACGCACTCTGGGACTGGATTTTTAGTTCTCGAATTTAAACAAGAAACAAAACTGTAAAGAACAGCTCTCTGGGATTCCTCTTTTCACTGGGATCGTGGGGAC`, “normalised bound fraction” read 0.189 ratio.
`GTGAGCGGTGCCCATTGATGGGGAACATCTTCCCCCTCTTCCTTGCCCCACCAGCTCACCTTCCCGGGTTATTTGCAGATAGGAAAATAAATAAAGCCGGCATTCGTTAACCCTCTTCTGGCGCAAACTGCTGTTTGCTCTGGATGAATCATGGTCCTTTGGCGACGCCAGGCTCCGGGAGAGAGCACAACCGTGTCAGGGCCATGATCCGGGGTGGCCTTTCACTGGGATCGTGGGGAC`: “normalised bound fraction” 0.346 ratio.

Study 3 — method: universal PBM; form: double-stranded DNA, one strand shown; medium: in vitro; tested at: 600 nM; direction: higher = stronger binding
Target: Sal-like protein 4, full length isoform A (SALL4, Homo sapiens, UniProt Q9UJQ4, residues 1-1053)
Sequence of UniProt Q9UJQ4 (whole entry, looked up): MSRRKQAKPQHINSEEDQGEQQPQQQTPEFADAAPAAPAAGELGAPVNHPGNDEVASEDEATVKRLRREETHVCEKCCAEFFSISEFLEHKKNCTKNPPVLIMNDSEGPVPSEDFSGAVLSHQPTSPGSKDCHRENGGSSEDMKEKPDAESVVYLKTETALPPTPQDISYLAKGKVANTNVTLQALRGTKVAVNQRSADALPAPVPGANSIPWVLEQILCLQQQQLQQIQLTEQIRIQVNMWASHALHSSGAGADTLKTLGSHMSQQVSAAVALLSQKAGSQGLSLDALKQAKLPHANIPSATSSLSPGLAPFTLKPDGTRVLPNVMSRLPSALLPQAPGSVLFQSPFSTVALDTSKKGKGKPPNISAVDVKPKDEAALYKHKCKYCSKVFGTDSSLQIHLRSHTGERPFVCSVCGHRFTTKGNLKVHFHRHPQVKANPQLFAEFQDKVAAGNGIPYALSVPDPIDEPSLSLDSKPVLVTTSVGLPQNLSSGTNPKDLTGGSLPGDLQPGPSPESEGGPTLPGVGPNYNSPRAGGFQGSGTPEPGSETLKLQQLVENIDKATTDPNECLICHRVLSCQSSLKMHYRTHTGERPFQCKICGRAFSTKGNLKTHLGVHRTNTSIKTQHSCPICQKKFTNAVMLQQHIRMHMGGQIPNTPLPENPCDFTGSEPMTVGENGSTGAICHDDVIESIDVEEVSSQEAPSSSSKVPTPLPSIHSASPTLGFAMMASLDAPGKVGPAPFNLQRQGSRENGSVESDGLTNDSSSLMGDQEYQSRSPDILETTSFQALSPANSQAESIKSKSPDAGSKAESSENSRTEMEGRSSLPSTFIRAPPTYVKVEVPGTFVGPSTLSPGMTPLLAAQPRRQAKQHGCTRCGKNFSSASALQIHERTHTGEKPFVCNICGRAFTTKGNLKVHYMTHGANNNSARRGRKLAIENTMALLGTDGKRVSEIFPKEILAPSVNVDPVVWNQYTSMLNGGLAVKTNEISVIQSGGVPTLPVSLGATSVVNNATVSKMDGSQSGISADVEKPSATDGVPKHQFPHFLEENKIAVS
Setting: 8-mer, flanks averaged, mean of replicates
With `GAGCTAGA` the E-score was -0.033.
The E-score of `AAAGGTTG` is reported as -0.0676.
The E-score of `ACACGGGC` is reported as -0.305.
With `ACACTCAG` the E-score was -0.126.
For `CTGACCGA`, the E-score was -0.178.
`CACCCTAG` gave an E-score of -0.0392.
The E-score of `GCTGGTGA` is reported as -0.105.
The E-score of `AGGTGAGG` is reported as -0.132.
`CGCGCCCA` gave an E-score of -0.338.
For `GGTACCCA`, the E-score was -0.255.
`GGACGAAC` gave an E-score of 0.0708.
`AAGGGAGG` has an E-score of -0.152.
`CTCGCCAA` gave an E-score of -0.0566.
`GGTAACGA` gave an E-score of -0.00221.
The E-score of `AGATCTAT` is reported as 0.215.
`GGGACGGA` gave an E-score of -0.294.
`AAGCATGT` gave an E-score of 0.173.
For `CGGAAGTA`, the E-score was -0.0524.
The E-score of `CGAGTCCA` is reported as -0.229.
`TACATGCA` gave an E-score of 0.0859.
`AGTCTACC` gave an E-score of -0.146.
For `GCAAAGAA`, the E-score was 0.0965.
For `AGTAAACA`, the E-score was 0.183.
For `TCAGTGAA`, the E-score was -0.0486.
`ACCATTAA` has an E-score of 0.271.

Study 4 — method: RNA Bind-n-Seq; form: RNA; medium: in vitro; tested at: 200 nM; setting: whole 134-nt RNA, ends assumed; with: 150 mM LiCl; baseline: input library; direction: higher = stronger binding; all molecules: 7-deaza-guanosine replaces G
Target: Fragile X messenger ribonucleoprotein 1, C-terminal low-complexity region (Fmr1, Mus musculus, UniProt P35922)
`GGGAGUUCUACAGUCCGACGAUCAAGUCCUGUGCUACACAUCGUAUGUACCGAAUCGGGGUGGGGAGGGGUUUUUGGGGAAAGUAUUAUGUUACGCCGUUCGGAUCUGCACUUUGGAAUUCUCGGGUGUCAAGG` has a log2 enrichment of -0.757.
`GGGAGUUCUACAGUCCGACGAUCCACAGACAACACGCACCCACACAGACACAGAGGGAAGGGGUUGGGAUGGGGGCAGGGUGCACAGCAGGGCGGGGUAGGACCCCAGCCCCUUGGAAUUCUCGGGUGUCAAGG` gave a log2 enrichment of 0.0193.
The log2 enrichment of `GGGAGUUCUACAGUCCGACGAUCGUCCUGUGCUACACAUCGUAUGUACCGAAUCGGGGUGGGGAAAAAGGGGUUUUUGGGGAAAGUAUUAUGUUACGCCGUUCGGAUCUGCACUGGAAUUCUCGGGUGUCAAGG` is reported as 0.0832.
`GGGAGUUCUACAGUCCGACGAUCUUUCUAGGCAAGAGGAGGAACGACGUAGAAGAGAGGAAGAGAUGAUGAUUCGUCAACGUGAGAUGGAAGAACAAAUGAGGCGCCAAAGAGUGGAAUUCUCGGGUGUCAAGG` gave a log2 enrichment of 1.6.
The log2 enrichment of `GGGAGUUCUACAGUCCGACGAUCAGUCCUGUGCUACACAUCGUAUGUACCGAAUCGGGAAAAAGGAAAAAGGGAAAAAGGAAAGUAUUAUGUUACGCCGUUCGGAUCUGCACUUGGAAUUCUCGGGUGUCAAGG` is reported as -1.6.
`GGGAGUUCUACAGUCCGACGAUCUUGGAGGUGGAUUUUGUUUAUUUUUUUAGCUCAUUUCCAGGGGUGGGAAUUUUUUUUUAAUAUGUGUCAUGAAUAAAGUUGUUUUUGAAAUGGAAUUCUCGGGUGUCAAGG` gave a log2 enrichment of -0.97.
`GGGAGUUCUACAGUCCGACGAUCCAAGUCCUGUGCUACACAUCGUAUGUACCGAAUCGGUGGUUUUUGGAAAAAAAGGAAAGUAUUAUGUUACGCCGUUCGGAUCUGCACUUCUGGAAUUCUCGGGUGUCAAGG` has a log2 enrichment of -0.976.
The log2 enrichment of `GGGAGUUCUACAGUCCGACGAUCUUUGGAGAAGGAACCCCACUCUCCAGCUGACCAGCCUGAACAACAGGCAGAAUCCACUUUGACAUCAGCUGAGACUAGGGGAAGCAAGAAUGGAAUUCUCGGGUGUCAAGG` is reported as -0.504.

Study 5 — method: RNA Bind-n-Seq; form: RNA; medium: in vitro; tested at: 365 nM; baseline: no-protein control; direction: higher = stronger binding
Target: RNA binding protein fox-1 homolog 2, RRM domain, GST-SBP tag (RBFOX2, Homo sapiens, UniProt O43251-10, residues 100-194)
Setting: natural RNA segment, single round, ends assumed
`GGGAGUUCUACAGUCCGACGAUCCGUGAACAUUGUGCCGUACCUGAGAUGGUCUGUGGACUGCUGCUUCAGACACACGAGUCCUCGGAACUGCCUGGCUGCCUGUCACGCAUGCUCUGAGUCAGAACACACCAUGGAAUUCUCGGGUGCCAA` — result for “RBNS enrichment (R)”: 10.1.
`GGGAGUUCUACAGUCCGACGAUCUCGAGGAUGCUGACCUAAGCCAGAGCCAUCUAGUUGCCCCUCUGGGCAACUUUGGGAAUUCUGGGAUCCCACUGUCUUGACAGGUUCCUAGACCGGAGCGCAUGCUGGCUUGGAAUUCUCGGGUGCCAA` — result for “RBNS enrichment (R)”: 9.74.
`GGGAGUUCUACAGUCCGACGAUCAUGUAUGUGUAAAGUGUGAAUAAAUCUCAUAUCAAAUGUCAAACUUUUACAUGUGAAUGAUUUUCUCAAAGAACAUAGAAAAGUCAAUAAAAUCCUCUUAAUUUCCACAUUGGAAUUCUCGGGUGCCAA` — result for “RBNS enrichment (R)”: 0.446.
Under “RBNS enrichment (R)”, `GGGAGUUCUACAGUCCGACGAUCUUGACAUGAAGACGACUGUUCCGUUAUUGGGAAGUAAUCAGCUUUUGAAACUGAGAGUGUUGGGAAGGAUAUACUUACGUAAUGGAGCUGUCAAAGCCGAGAGACCAGCCUGGAAUUCUCGGGUGCCAA` is recorded as 0.515.
`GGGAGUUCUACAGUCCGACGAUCUAAAAAUGCAAAGCCUAUAUGUUGAGACAUUGUAUUCCUAAUUAGAUUCUCUGUCCUUUGCACAUAACUUUCUUUUAAACUUAGUUCUAACCCUAAAUCUUGACAUCAGAUGGAAUUCUCGGGUGCCAA`: “RBNS enrichment (R)” 0.462.
`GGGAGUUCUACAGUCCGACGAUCGCCUCAGAAGGAAAGCCAGGGGCAAGCAAAGGAGACCAAAAUUUCUUGGGGAAGAUUUUUCACGCAGCCCUAAGUGCCCAAGCACAUUUUCCCUGGUUGCCUCCUGGGCCUGGAAUUCUCGGGUGCCAA`: “RBNS enrichment (R)” 0.382.
Under “RBNS enrichment (R)”, `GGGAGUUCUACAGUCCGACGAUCCUCCUCCACUCUAUAAGCAGUCAUCUUGGGAGACCGGGAGGAGAAGGUGGUGGGCUAGUCCUGUGUCCUCCUCCACUUCCCAUGCCUCUAUGUUACCCAUCUGUGUCUCCUGGAAUUCUCGGGUGCCAA` is recorded as 0.514.
Under “RBNS enrichment (R)”, `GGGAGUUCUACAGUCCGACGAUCUUACUGUACCCUGCAGUGUUGAUUUUUAAAAUAGAGUUUUCUGCAGUAUGCUUUUAGUCUAAGAAAAGCACAGAUGGAGCAAUACUUUCCUUCUUUGAAGAGAAUCCCAAUGGAAUUCUCGGGUGCCAA` is recorded as 0.658.
